Measured values pooled from the literature.
Compare with care: the assays were run in different laboratories. “And” joins repeats or separate records; there may be more than shown. Numbers after ± are the reported error.

C1CCc2c(c(N3CCOCC3)nc3sc4c(N5CCNCC5)nnnc4c23)C1
fraction unbound (equilibrium dialysis; male Sprague Dawley rat plasma; 2 µM, 4 h, pH 7.4, 37 °C): 0.11

Nc1ccc(S(=O)(=O)c2ccc(N)cc2)cc1
fraction unbound (equilibrium dialysis; human plasma): 0.381

O=C(O)c1cn(-c2ccc(-c3ccc(C(=O)N4CCNCC4)cc3)cc2)cc(O)c1=O
fraction unbound (human plasma): 0.64

CN1CCN(C2=Nc3cc(Cl)ccc3Nc3ccccc32)CC1
fraction unbound (ultrafiltration; rat plasma; 5 µM, 30 min): 0.09

COc1cc2c3c(n(CCCN4CCOCC4)c(=O)c2cc1OC)-c1cc2c(cc1C3=O)OCO2
fraction unbound (equilibrium dialysis; dog plasma; 4300 ng/mL, 24 h, 37 °C): 0.039

C=CC(=O)N1CC2(CCN(c3nc4c(c(-c5cc(O)cc6ccccc56)c3F)C[C@H]3C[C@@H]4C3(C)C)C2)C1
fraction unbound (mouse plasma): 0.03

Clc1cccc(Nc2ncnc3ccc(-c4cccc(N5CCOCC5)c4)cc23)c1
fraction unbound (human plasma): 0.0004

O=C1N[C@H](c2cncc(C#Cc3ccccc3)c2)[C@@H](c2ccccc2Cl)O1
fraction unbound (plasma; rat, monkey or human): 0.001 to 0.005

O=S(=O)(c1ccc(-c2ccc3ncccc3c2)cc1)N1CCOCC1
fraction unbound (human plasma): 0.071

NC/C(=C\F)COc1cccc(Cn2c(=S)[nH]c(=O)c3[nH]cnc32)c1
fraction unbound (dog plasma; 10 µM, 5 (unit not given)): 0.25

O=[N+]([O-])c1ccc(Nc2ccnc3ccc(-c4ccc(S(=O)(=O)N5CCOCC5)cc4)cc23)cn1
fraction unbound (human plasma): 0.024

CC#Cc1cncc(-c2ccc3c(c2)[C@@]2(N=C(C)C(N)=N2)[C@]2(CC[C@H](OC)CC2)C3)c1
fraction unbound (equilibrium dialysis; rat plasma; 6 h, pH 7.4): 0.05

Cc1ccccc1CN1C(=O)C2=C(CCN(Cc3ccccc3)C2)N2CCN=C12
fraction unbound (equilibrium dialysis; plasma; 1.932 mg/L): 0.0389

CC(C)N1Cc2cc(C(F)(F)F)ncc2C2=CN=C(NCc3c(F)ccc4c3CCO4)N3C=NC(C1=O)C23 (stereo not drawn)
fraction unbound (mouse plasma): 0.01

C[C@@H](NC(=O)c1ccc(C#Cc2cccc(F)c2)cn1)C(C)(C)O
fraction unbound (brain homogenate): 0.007

C=C(F)C(=O)N1CCN(c2nc(OC[C@@H]3CCCN3C)nc3c2CCN(c2cccc4cccc(Cl)c24)C3)C[C@@H]1CC#N
fraction unbound (equilibrium dialysis; human liver microsomes; 1 µM, 1 mg/mL microsomal protein): 0.04

NC(=O)N1c2ccccc2C=Cc2ccccc21
fraction unbound (equilibrium dialysis; mouse plasma; 5 µM, 6 h): 0.335

c1cc(-c2ccc3ncnc(Nc4ncco4)c3c2)nc(N2CCOCC2)c1
fraction unbound (human plasma): 0.0051

C=CC(=O)Nc1cc(Nc2nccc(-c3cn(C)c4ccccc34)n2)c(OCC(F)(F)F)nc1N(C)CCN(C)C
fraction unbound (rapid equilibrium dialysis; human plasma; 0.2 µg/mL): 0.79% and 0.93% and 0.99%

CCC(C)n1ncn(-c2ccc(N3CCN(c4ccc(OCC5COC(Cn6cncn6)(c6ccc(Cl)cc6Cl)O5)cc4)CC3)cc2)c1=O (stereo not drawn)
fraction unbound (equilibrium dialysis; human liver microsomes 0.025 mg/mL): 0.27 ± 0.028

N#C[C@@]1(c2ccc3c(N)ncnn23)O[C@H](CO)[C@@H](O)[C@H]1O
fraction unbound (mouse plasma; 100 µM): 0.897

O=C(O)Cc1ccccc1Nc1c(Cl)cccc1Cl
fraction unbound (rapid equilibrium dialysis; 10% human plasma; 2 µM, 24 h, pH 7.4): 0.0022

Cc1cnnc(Nc2ccnc3ccc(-c4ccc(S(=O)(=O)N5CCOCC5)cc4)cc23)c1
fraction unbound (human plasma): 0.05

CC(=O)CC(c1ccccc1)c1c(O)c2ccccc2oc1=O (stereo not drawn)
fraction unbound (rapid equilibrium dialysis; human plasma; 2 µM, 6 h, pH 7.4): 0.0068

N#C[C@@]12C[C@@H]1[C@@H](n1cnc3c(N[C@@H](C4CCC4)C4CC4)nc(I)nc31)[C@H](O)[C@@H]2O
fraction unbound (plasma protein binding; mouse plasma): 0.0058

Cc1nsc(-c2nnc3n2CCN(C(=O)c2ccc(F)cc2)[C@@H]3C)n1
fraction unbound (blood): 0.49

CO[C@H]1/C=C/O[C@@]2(C)Oc3c(C)c(O)c4c(c3C2=O)C2=NC3(CCN(CC(C)C)CC3)NC2=C(NC(=O)/C(C)=C\C=C\[C@H](C)[C@H](O)[C@@H](C)[C@@H](O)[C@@H](C)[C@H](OC(C)=O)[C@@H]1C)C4=O
fraction unbound (human plasma): 0.0383

CN1CCN(c2cccc(-c3ccc4ncnc(Nc5ccc([N+](=O)[O-])c(C(F)(F)F)c5)c4c3)c2)CC1
fraction unbound (human plasma): < 0.0027

Cc1nn(C)cc1S(=O)(=O)NC(=O)c1ccc(-n2ccc(OCC(C)(C)C(F)(F)F)n2)nc1N1C[C@@H](C)CC1(C)C
fraction unbound (rapid equilibrium dialysis; human, plasma; 6 h post-dose): 0.004

C[C@H]1CNC(=O)c2cnn3ccc(nc23)N[C@H](C)c2cc(F)ccc2O1
fraction unbound (equilibrium dialysis; cell medium with 10% FBS): 0.56

Cc1cc(Nc2ccc(S(F)(F)(F)(F)F)cc2)n2nc(C(C)(F)F)nc2n1
fraction unbound (equilibrium dialysis; RPMI medium with 10% FBS; 24 h): 0.12 ± 0.0043

O=C(COc1ccc(N2C(=O)[C@@H]3[C@@H]4C=C[C@@H]([C@H]5C[C@@H]45)[C@@H]3C2=O)cc1)c1cc(Cl)cc(Cl)c1
fraction unbound (equilibrium dialysis; culture medium; 5 µM, 6 h, pH 7.4): 0.11

NC(=O)N1c2ccccc2C=Cc2ccccc21
fraction unbound (mouse plasma): 0.271

CN1CCN(c2cccc(-c3ccc4ncnc(Nc5ccc(Cl)c(C(F)(F)F)c5)c4c3)c2)CC1
fraction unbound (human plasma): < 0.0032

CCn1nccc1Nc1ccnc2ccc(-c3ccc(S(=O)(=O)N4CCOCC4)cc3)cc12
fraction unbound (human plasma): 0.058

CC(=O)Nc1ccc(O)cc1
fraction unbound (rapid equilibrium dialysis; human plasma; 2 µM, 6 h, pH 7.4): 0.745
